Measured values collected from several papers.
Compare with care: the assays were run in different laboratories. Several values in a cell are separate wells, animals, samples, runs or records. Numbers after ± are the reported error.
DRD4: D(4) dopamine receptor (DRD4, Homo sapiens, UniProt P21917)
UniProt P21917, sequence (whole entry, looked up): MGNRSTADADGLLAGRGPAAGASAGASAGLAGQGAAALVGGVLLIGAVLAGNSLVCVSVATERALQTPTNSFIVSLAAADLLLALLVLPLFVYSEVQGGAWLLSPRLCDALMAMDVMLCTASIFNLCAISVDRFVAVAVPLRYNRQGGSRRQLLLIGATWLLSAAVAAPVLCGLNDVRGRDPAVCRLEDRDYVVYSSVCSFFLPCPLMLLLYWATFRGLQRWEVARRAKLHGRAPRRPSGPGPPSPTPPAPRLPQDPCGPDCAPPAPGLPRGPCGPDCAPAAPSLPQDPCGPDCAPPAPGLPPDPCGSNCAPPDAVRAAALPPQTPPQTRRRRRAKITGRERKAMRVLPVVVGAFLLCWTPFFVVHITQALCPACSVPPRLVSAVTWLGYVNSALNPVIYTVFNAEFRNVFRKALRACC
HTR5A: 5-hydroxytryptamine receptor 5A (HTR5A, Homo sapiens, UniProt P47898)
UniProt P47898, sequence (whole entry, looked up): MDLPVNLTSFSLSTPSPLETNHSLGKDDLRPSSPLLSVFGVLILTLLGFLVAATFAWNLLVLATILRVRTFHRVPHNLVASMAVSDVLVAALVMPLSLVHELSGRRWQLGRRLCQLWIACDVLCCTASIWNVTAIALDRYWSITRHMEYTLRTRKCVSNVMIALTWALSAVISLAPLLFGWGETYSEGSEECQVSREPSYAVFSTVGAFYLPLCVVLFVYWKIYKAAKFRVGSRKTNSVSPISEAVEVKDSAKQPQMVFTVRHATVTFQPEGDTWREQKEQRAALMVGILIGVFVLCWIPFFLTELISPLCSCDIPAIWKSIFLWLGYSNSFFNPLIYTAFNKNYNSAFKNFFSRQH
AMY2: Pancreatic alpha-amylase (AMY2, Sus scrofa, UniProt P00690)
UniProt P00690, sequence (whole entry, looked up): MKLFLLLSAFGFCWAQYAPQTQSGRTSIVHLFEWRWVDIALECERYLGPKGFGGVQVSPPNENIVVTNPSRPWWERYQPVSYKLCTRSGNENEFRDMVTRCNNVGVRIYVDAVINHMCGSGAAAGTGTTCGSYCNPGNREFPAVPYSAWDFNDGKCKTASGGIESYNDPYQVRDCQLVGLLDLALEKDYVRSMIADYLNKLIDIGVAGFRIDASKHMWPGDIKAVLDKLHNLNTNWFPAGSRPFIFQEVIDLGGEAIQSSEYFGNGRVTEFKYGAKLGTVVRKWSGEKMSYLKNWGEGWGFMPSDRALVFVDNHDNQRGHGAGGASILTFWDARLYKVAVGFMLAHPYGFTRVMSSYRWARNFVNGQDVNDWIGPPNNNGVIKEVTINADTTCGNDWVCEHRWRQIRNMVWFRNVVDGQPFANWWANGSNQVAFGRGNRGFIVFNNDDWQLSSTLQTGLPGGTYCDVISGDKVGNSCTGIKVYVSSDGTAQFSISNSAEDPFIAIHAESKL
HDAC11: Histone deacetylase 11 (HDAC11, Homo sapiens, UniProt Q96DB2)
UniProt Q96DB2, sequence (whole entry, looked up): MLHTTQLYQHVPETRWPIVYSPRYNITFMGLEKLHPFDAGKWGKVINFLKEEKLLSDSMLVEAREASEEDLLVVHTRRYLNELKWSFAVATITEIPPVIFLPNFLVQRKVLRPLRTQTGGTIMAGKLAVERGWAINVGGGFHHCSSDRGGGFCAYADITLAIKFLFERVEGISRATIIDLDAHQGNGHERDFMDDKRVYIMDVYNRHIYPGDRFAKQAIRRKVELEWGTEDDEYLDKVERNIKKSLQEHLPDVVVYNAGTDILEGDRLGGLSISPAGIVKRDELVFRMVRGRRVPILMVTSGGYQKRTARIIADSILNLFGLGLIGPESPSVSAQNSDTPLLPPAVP
HTR2B: 5-hydroxytryptamine receptor 2B (HTR2B, Homo sapiens, UniProt P41595)
UniProt Q63959, sequence (whole entry, looked up): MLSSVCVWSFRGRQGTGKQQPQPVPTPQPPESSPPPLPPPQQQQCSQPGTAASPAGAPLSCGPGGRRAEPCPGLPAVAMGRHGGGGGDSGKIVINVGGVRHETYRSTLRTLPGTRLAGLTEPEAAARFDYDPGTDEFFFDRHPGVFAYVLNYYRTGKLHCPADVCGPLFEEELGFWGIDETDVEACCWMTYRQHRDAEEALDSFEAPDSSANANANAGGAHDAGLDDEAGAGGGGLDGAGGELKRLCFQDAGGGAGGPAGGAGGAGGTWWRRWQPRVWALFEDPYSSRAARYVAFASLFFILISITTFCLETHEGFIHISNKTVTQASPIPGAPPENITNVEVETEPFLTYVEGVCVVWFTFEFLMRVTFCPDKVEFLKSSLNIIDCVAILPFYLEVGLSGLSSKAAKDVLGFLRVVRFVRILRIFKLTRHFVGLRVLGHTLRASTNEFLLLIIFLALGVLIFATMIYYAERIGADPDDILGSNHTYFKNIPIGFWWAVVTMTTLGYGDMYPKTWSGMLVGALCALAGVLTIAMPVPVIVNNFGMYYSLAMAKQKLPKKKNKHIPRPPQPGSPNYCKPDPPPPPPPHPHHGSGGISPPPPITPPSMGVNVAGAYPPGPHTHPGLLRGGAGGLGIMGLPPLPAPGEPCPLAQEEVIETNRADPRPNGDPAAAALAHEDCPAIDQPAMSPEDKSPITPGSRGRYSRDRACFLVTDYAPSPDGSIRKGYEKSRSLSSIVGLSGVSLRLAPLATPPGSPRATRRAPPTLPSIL
UniProt Q93009, sequence (whole entry, unmodified, looked up): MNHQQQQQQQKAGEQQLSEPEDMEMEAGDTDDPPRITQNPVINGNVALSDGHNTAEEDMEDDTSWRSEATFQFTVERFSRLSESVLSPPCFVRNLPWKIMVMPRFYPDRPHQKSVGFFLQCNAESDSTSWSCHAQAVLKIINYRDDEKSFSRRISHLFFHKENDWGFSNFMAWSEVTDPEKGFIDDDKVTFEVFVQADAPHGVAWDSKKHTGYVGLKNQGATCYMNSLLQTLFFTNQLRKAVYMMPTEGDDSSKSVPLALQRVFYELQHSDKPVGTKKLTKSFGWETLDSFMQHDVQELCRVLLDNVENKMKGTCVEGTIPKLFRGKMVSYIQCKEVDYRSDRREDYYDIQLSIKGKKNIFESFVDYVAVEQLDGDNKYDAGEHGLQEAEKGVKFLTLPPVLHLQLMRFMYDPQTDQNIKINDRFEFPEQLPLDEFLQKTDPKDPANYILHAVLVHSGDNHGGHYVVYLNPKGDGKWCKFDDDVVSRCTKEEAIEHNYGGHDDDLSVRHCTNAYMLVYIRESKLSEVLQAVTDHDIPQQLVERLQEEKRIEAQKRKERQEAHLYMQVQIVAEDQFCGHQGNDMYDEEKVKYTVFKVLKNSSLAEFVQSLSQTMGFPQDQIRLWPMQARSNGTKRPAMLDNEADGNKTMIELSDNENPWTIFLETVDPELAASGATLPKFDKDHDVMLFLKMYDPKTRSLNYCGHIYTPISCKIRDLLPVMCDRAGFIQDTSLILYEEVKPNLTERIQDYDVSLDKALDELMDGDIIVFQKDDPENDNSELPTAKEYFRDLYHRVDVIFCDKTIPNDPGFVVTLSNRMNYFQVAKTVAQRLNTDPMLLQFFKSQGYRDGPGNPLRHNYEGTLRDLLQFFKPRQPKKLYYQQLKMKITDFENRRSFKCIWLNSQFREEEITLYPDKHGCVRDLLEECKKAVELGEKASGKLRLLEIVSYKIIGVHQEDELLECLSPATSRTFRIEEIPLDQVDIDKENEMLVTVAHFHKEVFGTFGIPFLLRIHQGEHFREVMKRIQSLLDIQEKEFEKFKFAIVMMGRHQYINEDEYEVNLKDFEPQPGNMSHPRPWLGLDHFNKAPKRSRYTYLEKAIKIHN
UniProt P41595, sequence (whole entry, looked up): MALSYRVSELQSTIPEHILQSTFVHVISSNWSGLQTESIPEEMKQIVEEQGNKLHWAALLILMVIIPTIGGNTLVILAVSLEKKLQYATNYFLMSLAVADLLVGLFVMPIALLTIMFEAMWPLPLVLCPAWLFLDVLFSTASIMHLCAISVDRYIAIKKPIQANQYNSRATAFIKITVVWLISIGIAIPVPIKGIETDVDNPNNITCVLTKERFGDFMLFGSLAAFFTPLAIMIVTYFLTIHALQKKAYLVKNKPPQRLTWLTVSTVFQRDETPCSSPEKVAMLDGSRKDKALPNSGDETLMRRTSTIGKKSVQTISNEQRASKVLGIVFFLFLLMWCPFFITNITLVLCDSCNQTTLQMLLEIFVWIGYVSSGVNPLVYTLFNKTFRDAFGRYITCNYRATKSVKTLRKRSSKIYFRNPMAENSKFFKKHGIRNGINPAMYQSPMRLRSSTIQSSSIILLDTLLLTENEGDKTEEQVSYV
UniProt O60603, sequence (whole entry, looked up): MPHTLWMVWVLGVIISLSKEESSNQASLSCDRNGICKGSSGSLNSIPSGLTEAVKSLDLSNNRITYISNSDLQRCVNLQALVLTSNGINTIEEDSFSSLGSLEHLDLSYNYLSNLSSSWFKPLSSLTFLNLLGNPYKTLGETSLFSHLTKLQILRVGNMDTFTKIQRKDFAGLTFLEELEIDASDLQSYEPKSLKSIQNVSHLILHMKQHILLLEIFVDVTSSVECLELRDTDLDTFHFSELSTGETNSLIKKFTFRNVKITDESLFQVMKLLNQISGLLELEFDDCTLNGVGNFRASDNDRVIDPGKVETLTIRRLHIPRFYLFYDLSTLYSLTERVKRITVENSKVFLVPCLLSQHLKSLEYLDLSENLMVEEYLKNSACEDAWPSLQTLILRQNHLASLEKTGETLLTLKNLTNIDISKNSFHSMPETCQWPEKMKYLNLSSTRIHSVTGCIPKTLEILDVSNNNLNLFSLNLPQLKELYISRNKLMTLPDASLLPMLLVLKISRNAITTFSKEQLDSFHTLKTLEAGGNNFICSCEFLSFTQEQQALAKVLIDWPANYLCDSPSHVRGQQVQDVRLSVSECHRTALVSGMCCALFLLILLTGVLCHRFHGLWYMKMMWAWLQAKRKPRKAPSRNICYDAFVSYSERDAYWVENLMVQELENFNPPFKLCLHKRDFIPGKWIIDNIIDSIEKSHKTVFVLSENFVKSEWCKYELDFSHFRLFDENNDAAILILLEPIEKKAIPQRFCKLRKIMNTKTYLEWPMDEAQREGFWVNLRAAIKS

| SMILES | tested on | test | system | setting | scale | measurement | value |
| --- | --- | --- | --- | --- | --- | --- | --- |
| COc1ccccc1N1CCN(CCCCN2CCc3ccccc3C2=O)CC1 | DRD4 | radioligand binding | – | concentration not given, added: [3H]N-methylspiperone | – | inhibition | 100% |
| Cc1nc2sccn2c(=O)c1CCN1CCC(=C(c2ccccc2)c2ccc(F)cc2)CC1 | Diacylglycerol kinase gamma (Dgkg, Rattus norvegicus, UniProt P49620) | enzyme activity, DAG kinase | HEK293T lysate overexpressing | 50 µM, added: [γ32P]-ATP | reference: DMSO control | inhibition | ~70% |
| O=C(CN1CCO[C@H](COc2ccccc2)C1)N1CCc2ccccc21 | HTR5A | radioligand binding | – | concentration not given, added: [3H]LSD | – | inhibition | 40.5% |
| C[C@H]1O[C@H](O[C@H]2[C@H](O)[C@@H](O)[C@@H](O[C@H]3[C@H](O)[C@@H](O)C(O)O[C@@H]3CO)O[C@@H]2CO)[C@H](O)[C@@H](O)[C@@H]1N[C@H]1C=C(CO)[C@@H](O)[C@H](O)[C@H]1O (stereo partly drawn) | AMY2 | enzyme activity | – | concentration not given, added: CNP-G3 substrate | – | inhibition | 88.1% and 87.7% |
| CC[C@@H]1[C@H](F)C(=O)N[C@@H]1COc1nccc2cc(C(N)=O)c(OC)cc12 | CLK3 (Homo sapiens, UniProt P49761) | ATP probe binding, KiNativ profiling, item: ATP loop probe site | THP-1 cell lysate | 0.01 mM | – | inhibition | 8.2% |
| Cn1cc(-c2ccc(-c3cncc(Cl)c3N3CCC4(CCNC4=O)CC3)cc2)cn1 | COLO 205 | gene expression, microarray, item: ELF3 mRNA | – | concentration not given, 2 h | reference: untreated cells | log2 fold change | 2.04 |
| O=c1c(O)c(-c2ccc(O)cc2O)oc2cc(O)cc(O)c12 | AMY2 | enzyme activity, inhibitor | – | 50 µM, added: CNP-G3 substrate | – | inhibition | 51.8 ± 4.65% |
| COc1ccc(OS(=O)(=O)Oc2cccc(C(=O)NO)c2)cc1 | HDAC11 | – | – | 5 µM | – | inhibition | 43% |
| OCCCN1CC[C@@H]2C[C@H]1c1cc(-c3ccc(C(F)(F)F)cc3)ccc12 | DRD4 | radioligand binding, PDSP competition binding | – | 10 µM | – | inhibition | < 50% |
| O=C(Nc1cccc2c(=O)cc(-c3nnn[nH]3)oc12)c1ccc(OCCCCc2ccccc2)cc1 | Volume-regulated anion channel subunit LRRC8C, part LRRC8A IL1 chimera (LRRC8C, Homo sapiens, UniProt Q8TDW0, L136K) | ion current, inhibitor, whole-cell patch clamp | HCT LRRC8-/- cells | 1 µM, +100 mV | – | inhibition | 91.5% and 85.8% and 89.4% and 64.1% and 86.6% |
| O=C(CC1NCCCC1O)Cn1cnc2cc(Br)c(Cl)cc2c1=O (stereo not drawn) | Bifunctional glutamate/proline--tRNA ligase, prolyl-tRNA synthetase domain (EPRS1, Homo sapiens, UniProt P07814) | prolyl-tRNA synthetase activity, inhibitor, [3H]Pro tRNA incorporation | – | 1 nM | – | inhibition | no inhibition |
| Cc1ccc(OC[C@@H]2CN(CCN3CCc4ccccc43)CCO2)cn1 | HTR5A | radioligand binding | – | concentration not given, added: [3H]LSD | – | inhibition | -18.8% |
| NC/C(=C\F)COc1cccc(Cn2c(=S)[nH]c(=O)c3[nH]cnc32)c1 | rat sodium channel site 2 | radioligand binding | – | 10 µM | – | inhibition | < 50% |
| O=C(CN1CCO[C@H](COc2cccnc2)C1)N1CCc2ccccc21 | DRD4 | radioligand binding | – | concentration not given, added: [3H]N-methylspiperone | – | inhibition | 28.1% |
| OC[C@H]1OC(O)[C@H](O)[C@@H](O)[C@@H]1O (stereo partly drawn) | Hexokinase-3 (HK3, Homo sapiens, UniProt P52790) | enzyme activity, inhibitor, coupled G6PDH | – | 10 mM, full-length enzyme | – | inhibition | ~40% |
| Cc1cc(-c2ccnc3[nH]cc(F)c23)cc(F)c1[C@@]1(O)[C@H](C)CN(C(=O)CN)C[C@@H]1C | AMPK alpha1 and alpha2 | ATP probe binding, KiNativ, item: Lys1 site | HEK293T cell lysate | 0.1 µM | – | inhibition | -11.4% |
| NC(=O)c1ncn([C@@H]2O[C@H](CO[P@@](=O)(O)O[P@](=O)(O)OP(=O)(O)O)[C@@H](O)[C@H]2O)n1 | Non-structural polyprotein pORF1, helicase domain (Hepatitis E virus genotype 1, UniProt P33424) | ATPase activity, inhibitor, colorimetric | – | 3.5 µM, added: ATP 100 µM | – | inhibition | 22.3% |

| SMILES | tested on | test | system | setting | scale | measurement | value |
| --- | --- | --- | --- | --- | --- | --- | --- |
| CC(C)c1noc2ncc(C(=O)c3ccccc3O)cc12 | Voltage-gated potassium channel KCNC3 (Kcnc3, Mus musculus, UniProt Q63959) | ion current, inhibitor, whole-cell patch clamp | – | 10 µM | – | inhibition | 9.59% and 4.05% and 6.91% and 6.31% and 11% |
| CCc1oc2ccccc2c1C(=O)c1cc(Br)c(O)c(Br)c1 | SLC22A12 (Homo sapiens, UniProt Q96S37) | urate uptake, inhibitor | HEK-293T cells | 0.5 µM, 10 min, 37 °C, wild type, added: 200 µM [14C]-urate | – | inhibition | 66% |
| Cc1cc(=O)oc2ccc(-c3cc(-c4cccc([N+](=O)[O-])c4)nc(N)n3)c(O)c12 | AMY2 | enzyme activity, inhibitor | – | concentration not given | – | inhibition | 70.7 ± 1.24% |
| O=C(NO)c1ccc(CN2CCCCc3ccccc32)c(F)c1 | ADRA1A (Homo sapiens, UniProt P35348) | radioligand binding, radioligand displacement | – | 10 µM, mean of replicates | – | inhibition | 19.7% |
| O=C(NO)c1cc(F)cc(OS(=O)(=O)Oc2ccccc2)c1 | HDAC11 | – | – | 10 µM | – | inhibition | 30% |
| COc1ccc2c(=O)oc3c(OC)cc(CCN(C)C)c4c(=O)oc1c2c34 | TLR2 (Homo sapiens, UniProt O60603) | SEAP reporter gene, inhibitor | HEK-Blue hTLR2 | 10 µM, added: Pam3CSK4 | – | inhibition | > 90% |
| Clc1cncc(OC[C@@H]2CN(CCN3CCc4ccccc43)CCO2)c1 | HTR2B | radioligand binding | – | concentration not given, added: [3H]LSD | – | inhibition | 36.1% |
| O=C(C[C@@H](C(F)F)n1ccc(F)n1)N1CCC(O)(Cn2cnc3c(cnn3-c3ccc(F)cc3)c2=O)CC1 | USP7 (Homo sapiens, UniProt Q93009, V517F) | enzyme activity, inhibitor | – | 0.5 µM | – | inhibition | 8.99% and 11.3% |
| Cc1ncccc1OC[C@H]1CN(CCN2CCc3ccccc32)CCO1 | HTR2B | radioligand binding | – | concentration not given, added: [3H]LSD | – | inhibition | 50.9% |
| COc1cc(C(=O)NS(=O)(=O)c2ccccc2C)ccc1Cc1cn(C)c2ccc(NC(=O)OC3CCCC3)cc12 | Volume-regulated anion channel subunit LRRC8C, part LRRC8A IL1 chimera (LRRC8C, Homo sapiens, UniProt Q8TDW0, C43G) | ion current, inhibitor, whole-cell patch clamp | HCT LRRC8-/- cells | 1 µM, +100 mV | – | inhibition | 28.8% and 19.6% and 4.77% and 12.7% and 29.7% and 0.909% |
| c1cncc(OC[C@H]2CN(CCN3CCc4ccccc43)CCO2)c1 | HTR5A | radioligand binding | – | concentration not given, added: [3H]LSD | – | inhibition | -20.7% |
| Ic1cccc2cnccc12 | nicotinic acetylcholine receptor (human) | radioligand binding, inhibitor | – | 10 µM | – | inhibition | -3% |
| COc1cc2c(cc1OC)C(=O)C(CC1CCN(Cc3ccccc3)CC1)C2 (stereo not drawn) | HTR5A | radioligand binding | – | concentration not given, added: [3H]LSD | – | inhibition | 17.3% |
| O=C(NO)c1cccc(OS(=O)(=O)Oc2ccc(-n3cccc3)cc2)c1 | HDAC11 | – | – | 10 µM | – | inhibition | 21% |
| CN1CC(Oc2cnc(C#N)cc2-c2ccn3nc(NC(=O)C4CC4)cc3c2)C1 | ACVR1B (Homo sapiens, UniProt P36896) | inhibitor, KinaseProfiler panel | – | 1 µM | – | inhibition | 1% |
| Cc1cc2c(cc1N1C(=O)c3cccc4c(CCCO)ccc(c34)C1=O)n(C)c(=O)n2C (racemic) | Protein polybromo-1, BD2 (PBRM1, Homo sapiens, UniProt Q86U86) | binding, BROMOscan binding | – | 100 nM | – | inhibition | 74% |

For quick reference, copied from above:
| SMILES | tested on | test | system | setting | scale | measurement | value |
| --- | --- | --- | --- | --- | --- | --- | --- |
| CCc1oc2ccccc2c1C(=O)c1cc(Br)c(O)c(Br)c1 | SLC22A12 (Homo sapiens, UniProt Q96S37) | urate uptake, inhibitor | HEK-293T cells | 0.5 µM, 10 min, 37 °C, wild type, added: 200 µM [14C]-urate | – | inhibition | 66% |
| CC[C@@H]1[C@H](F)C(=O)N[C@@H]1COc1nccc2cc(C(N)=O)c(OC)cc12 | CLK3 (Homo sapiens, UniProt P49761) | ATP probe binding, KiNativ profiling, item: ATP loop probe site | THP-1 cell lysate | 0.01 mM | – | inhibition | 8.2% |
| CN1CC(Oc2cnc(C#N)cc2-c2ccn3nc(NC(=O)C4CC4)cc3c2)C1 | ACVR1B (Homo sapiens, UniProt P36896) | inhibitor, KinaseProfiler panel | – | 1 µM | – | inhibition | 1% |
